Experimental data of several laboratories.
A part holds a random share of what one study measured. Values joined by “and” are separate records of one study, mostly repeats; a detail may differ.

Series 1
Organism: Plasmodium berghei
Action: inhibitor
Cell line: Huh-7
Strain: GFP-expressing sporozoites, liver stage
Tested at: 10 µM
Time: 24 h
Relative to: untreated control
SMILES	infection rate [%]
CCOc1nc2cccc(C(=O)OC(C)OC(=O)OC3CCCCC3)c2n1Cc1ccc(-c2ccccc2-c2nn[nH]n2)cc1 (stereo not drawn)	97.8
NS(=O)(=O)c1cc2c(cc1C(F)(F)F)NC(Cc1ccccc1)NS2(=O)=O (stereo not drawn)	85.6
O=C1O[C@H]([C@@H](O)CO)C(O)=C1O	95.5
C[C@@H]1CCC[C@H](C)N1NC(=O)c1ccc(Cl)c(S(N)(=O)=O)c1	92.1
C=CCSCC1Nc2cc(Cl)c(S(N)(=O)=O)cc2S(=O)(=O)N1 (stereo not drawn)	116
CN(C)CCc1c[nH]c2ccc(CS(=O)(=O)N3CCCC3)cc12	110

Series 2
SMILES: COc1cc(C(=O)N2CCC(N3CCN(C)CC3)CC2)ccc1Nc1ncc2c(n1)N(C)c1ccccc1C(=O)N2C
target or system	assay	test system	setting	inhibition [%]
MST4 (human)	probe labelling, KiNativ ADP probe	human PBMC lysate	concentration not given, LYS1 labelled site	-39.4
MAPKAPK2 (human)	probe labelling, KiNativ ATP probe	human PBMC lysate	concentration not given, LYS1 labelled site	7.1
human PBMC	probe labeling, inhibitor, KiNativ profiling	cell lysate	concentration not given, LYS1 site, added: ADP acyl-phosphate probe 0.1 µM	-1.6
mouse MER and TYRO3	probe labelling, KiNativ ADP probe	mouse brain lysate	1 µM	-4.1
LRRK2	KiNativ ADP probe	mouse brain lysate	1 µM, LYS1 site	-26.7
OSR1 (mouse)	KiNativ ATP probe	mouse brain tissue	1 µM, probe site LYS2	3.7
mouse CaMK2γ	probe labelling, KiNativ ATP probe	mouse brain lysate	1 µM, LYS1 site TSTQEYAAkIINTK	8.7

Series 3
Cell line: mouse MPNST tumor cells
Method: high-content nuclear imaging
Refers to: cell number
Tested at: 10 µM
Time: 12 h
Setting: mean of 2 replicates
Relative to: plate mean
Reading: higher = more cells
SMILES	nuclei count
C[C@@H](O)[C@H]1C(=O)N2C(C(=O)O)=C(S[C@@H]3CN[C@H](C(=O)N(C)C)C3)[C@H](C)[C@H]12	1.56 z-score
CC(=O)Nc1nnc(S(N)(=O)=O)s1	0.174 z-score and 0.981 z-score and 0.547 z-score
Cn1c(=O)c2[nH]c(C3CCCC3)nc2n(C)c1=O	0.267 z-score
CCCN1CCN(c2ccc(C(=O)NC3(C(=O)NCC#N)CCCCC3)cc2)CC1	-0.833 z-score
CCOC(=O)OC(C)OC1=C(C(=O)Nc2ccccn2)N(C)S(=O)(=O)c2ccccc21 (stereo not drawn)	0.362 z-score
Nc1ccc(S(N)(=O)=O)cc1	0.232 z-score
CN(c1ccccc1CNc1nc(Nc2ccc3c(c2)CC(=O)N3)ncc1C(F)(F)F)S(C)(=O)=O	-3.83 z-score
CCN(CC)CCCC(C)Nc1ccnc2cc(Cl)ccc12 (stereo not drawn)	2.36 z-score and 2.17 z-score and 4.02 z-score
CN(C)c1nc(N(C)C)nc(N(C)C)n1	1.07 z-score and 0.303 z-score

Series 4
Target: 5-hydroxytryptamine receptor 1A (HTR1A, Homo sapiens, UniProt P08908)
Sequence of UniProt P08908 (whole entry, looked up): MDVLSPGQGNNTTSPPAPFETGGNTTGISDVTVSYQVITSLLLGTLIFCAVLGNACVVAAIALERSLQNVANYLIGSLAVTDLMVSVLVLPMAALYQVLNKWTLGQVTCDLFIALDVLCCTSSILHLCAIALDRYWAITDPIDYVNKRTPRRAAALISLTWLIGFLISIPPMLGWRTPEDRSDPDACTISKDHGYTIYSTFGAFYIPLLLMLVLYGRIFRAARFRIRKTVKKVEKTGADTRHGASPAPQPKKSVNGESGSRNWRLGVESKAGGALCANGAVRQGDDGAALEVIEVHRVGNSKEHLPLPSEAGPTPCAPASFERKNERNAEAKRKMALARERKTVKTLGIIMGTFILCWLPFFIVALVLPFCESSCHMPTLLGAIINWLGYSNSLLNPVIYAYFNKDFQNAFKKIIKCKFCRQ
Observed: ligand displacement
Method: radioligand
Tested at: 10 µM
SMILES	inhibition [%]
COc1ccc2cc(OCC3(C(=O)O)CN(C(=O)c4ccc(F)cc4)C3)ccc2c1	-22.7
O=C(O)c1cc(-c2ccc(C3CCNCC3)cc2)c2ccc(-c3ccc(C(F)(F)F)cc3)cc2c1	11.2
CCOCCn1cc(C(=O)Nc2ccc(-n3nc(-c4cccnc4)cc3C(F)(F)F)cn2)ccc1=O	13.9
O=c1nc(-c2ccccn2)sc2ccccc12	9.69
O=C(N[C@H]1CCCCC/C=C\C2C[C@@]2(C(=O)O)NC(=O)[C@@H]2C[C@@H](Oc3ccncc3)CN2C1=O)OC1CCCC1 (stereo partly drawn)	-13.8
O=C1NC(c2ccccn2)Sc2ccccc21 (stereo not drawn)	24.7
O=C(O)[C@@H]1[C@@H](Cn2nnc3ccccc3c2=O)CC[C@H]1C(=O)c1ccc(OCCC2CCOCC2)cc1	7.62
CCS(=O)(=O)c1cc2cc(C[C@](O)(CC(C)(C)c3ccc(F)cc3C(N)=O)C(F)(F)F)[nH]c2cn1	-14.2
Cc1nc(N2CC[C@@H](O)C2)ncc1-c1cc(C(F)(F)F)cc2[nH]ncc12	20
O=C(N1CCS(=O)(=O)CC1)N1C[C@H](c2ccc(OC(F)(F)F)cc2)C[C@H](c2nc(C3CC3)no2)C1	14.7
O=S(=O)(NC1CCC(c2cc(F)ccc2F)(S(=O)(=O)c2ccc(Cl)cc2)CC1)C(F)(F)F (stereo not drawn)	18.3
Cc1nc(Cc2cccc(C(F)(F)F)c2)sc1-c1ccc(C(N)=O)nc1	-2.04
C[C@@H]1CN(c2cc(-c3nn(C)c4ccc(OC5(C)CC5)cc34)ncn2)C[C@H](C)O1	18.1
Cc1ccc(-c2cnc([C@@]3(O)CC[C@H](C(=O)O)C(C)(C)C3)s2)cc1Nc1cccc(C(F)(F)F)n1	17.5
CCc1ccccc1C(=O)Nc1n[nH]c2c(C)c(F)c(C3C(C#N)=C(C)N(C)C(C)=C3C#N)cc12	5.2
CN1CCN(C(=O)C(C)(C)c2ccc(C(=O)Nc3cn4cc(-c5ccncc5)ccc4n3)cc2)CC1	-11.7
CN([C@@H]1CCc2c(CC(=O)O)c3cc(S(C)(=O)=O)ccc3n2C1)S(=O)(=O)c1ccc(F)cc1	-10.6
CC1=C(C#N)[C@@H](c2ccc3[nH]nc(C)c3c2)C(C#N)=C(c2ccc(Cl)cc2)N1	2.67
FC(F)(F)c1ccc2c(c1)nc(-c1cccnc1)n2C1CC1	0.44
CNCc1ccccc1-c1csc([C@@H](C)Nc2nc(C)nc3cc(OC)c(OC)cc23)c1	56.5
